Measured values of several laboratories.
Numbered parts are unrelated; each lists some results of a single study.
UniProt P09769, sequence (whole entry, looked up): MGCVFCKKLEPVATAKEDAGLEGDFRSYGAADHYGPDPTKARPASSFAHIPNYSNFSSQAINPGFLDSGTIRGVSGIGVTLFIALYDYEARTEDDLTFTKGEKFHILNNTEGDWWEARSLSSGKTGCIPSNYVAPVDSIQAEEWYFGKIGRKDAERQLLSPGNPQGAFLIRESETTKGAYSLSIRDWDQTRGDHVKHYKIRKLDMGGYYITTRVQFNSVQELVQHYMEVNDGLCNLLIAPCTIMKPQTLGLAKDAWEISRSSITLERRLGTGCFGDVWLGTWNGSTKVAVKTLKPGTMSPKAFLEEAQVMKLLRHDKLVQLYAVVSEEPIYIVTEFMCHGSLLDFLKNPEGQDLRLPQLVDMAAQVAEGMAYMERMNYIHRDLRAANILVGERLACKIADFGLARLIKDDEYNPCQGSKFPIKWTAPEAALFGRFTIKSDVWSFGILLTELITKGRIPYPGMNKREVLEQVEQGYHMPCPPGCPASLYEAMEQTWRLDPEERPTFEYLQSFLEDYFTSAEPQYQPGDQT
UniProt Q00526, sequence (whole entry, looked up): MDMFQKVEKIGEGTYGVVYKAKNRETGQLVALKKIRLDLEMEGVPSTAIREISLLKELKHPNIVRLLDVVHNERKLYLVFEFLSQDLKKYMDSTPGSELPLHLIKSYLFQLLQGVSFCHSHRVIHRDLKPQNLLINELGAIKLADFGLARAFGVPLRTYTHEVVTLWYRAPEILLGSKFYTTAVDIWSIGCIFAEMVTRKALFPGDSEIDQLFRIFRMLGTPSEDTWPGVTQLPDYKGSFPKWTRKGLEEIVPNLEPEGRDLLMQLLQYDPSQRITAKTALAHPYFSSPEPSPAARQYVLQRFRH
UniProt P52333, sequence (whole entry, looked up): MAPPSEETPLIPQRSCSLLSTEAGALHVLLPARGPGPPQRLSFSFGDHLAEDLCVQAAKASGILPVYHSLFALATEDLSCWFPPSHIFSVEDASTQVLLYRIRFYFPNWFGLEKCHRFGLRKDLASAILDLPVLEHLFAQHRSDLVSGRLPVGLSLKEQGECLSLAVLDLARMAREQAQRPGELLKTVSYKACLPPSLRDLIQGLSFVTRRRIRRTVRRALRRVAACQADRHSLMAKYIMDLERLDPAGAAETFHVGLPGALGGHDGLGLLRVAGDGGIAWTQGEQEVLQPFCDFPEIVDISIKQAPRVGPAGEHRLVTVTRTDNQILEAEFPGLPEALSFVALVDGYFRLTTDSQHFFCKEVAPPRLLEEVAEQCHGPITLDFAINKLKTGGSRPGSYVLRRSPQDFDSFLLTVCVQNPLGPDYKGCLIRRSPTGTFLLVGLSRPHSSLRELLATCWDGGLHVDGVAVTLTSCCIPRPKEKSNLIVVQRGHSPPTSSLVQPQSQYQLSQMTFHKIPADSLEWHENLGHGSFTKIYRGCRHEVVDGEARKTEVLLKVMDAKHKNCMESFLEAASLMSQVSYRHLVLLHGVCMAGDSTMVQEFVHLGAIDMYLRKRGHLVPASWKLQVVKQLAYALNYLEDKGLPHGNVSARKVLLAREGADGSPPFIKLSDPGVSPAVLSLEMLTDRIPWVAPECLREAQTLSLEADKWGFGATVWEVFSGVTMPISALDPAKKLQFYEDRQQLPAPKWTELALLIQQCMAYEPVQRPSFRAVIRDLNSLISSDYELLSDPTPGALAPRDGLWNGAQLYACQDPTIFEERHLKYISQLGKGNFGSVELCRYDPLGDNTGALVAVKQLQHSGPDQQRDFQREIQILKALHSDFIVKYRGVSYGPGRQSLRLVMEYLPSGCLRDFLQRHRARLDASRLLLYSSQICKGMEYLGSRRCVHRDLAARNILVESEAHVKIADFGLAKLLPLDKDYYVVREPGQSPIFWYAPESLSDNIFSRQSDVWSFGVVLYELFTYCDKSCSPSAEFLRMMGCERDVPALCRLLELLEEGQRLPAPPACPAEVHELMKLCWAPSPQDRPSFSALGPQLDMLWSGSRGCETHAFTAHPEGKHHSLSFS
UniProt Q5VT25, sequence (whole entry, looked up): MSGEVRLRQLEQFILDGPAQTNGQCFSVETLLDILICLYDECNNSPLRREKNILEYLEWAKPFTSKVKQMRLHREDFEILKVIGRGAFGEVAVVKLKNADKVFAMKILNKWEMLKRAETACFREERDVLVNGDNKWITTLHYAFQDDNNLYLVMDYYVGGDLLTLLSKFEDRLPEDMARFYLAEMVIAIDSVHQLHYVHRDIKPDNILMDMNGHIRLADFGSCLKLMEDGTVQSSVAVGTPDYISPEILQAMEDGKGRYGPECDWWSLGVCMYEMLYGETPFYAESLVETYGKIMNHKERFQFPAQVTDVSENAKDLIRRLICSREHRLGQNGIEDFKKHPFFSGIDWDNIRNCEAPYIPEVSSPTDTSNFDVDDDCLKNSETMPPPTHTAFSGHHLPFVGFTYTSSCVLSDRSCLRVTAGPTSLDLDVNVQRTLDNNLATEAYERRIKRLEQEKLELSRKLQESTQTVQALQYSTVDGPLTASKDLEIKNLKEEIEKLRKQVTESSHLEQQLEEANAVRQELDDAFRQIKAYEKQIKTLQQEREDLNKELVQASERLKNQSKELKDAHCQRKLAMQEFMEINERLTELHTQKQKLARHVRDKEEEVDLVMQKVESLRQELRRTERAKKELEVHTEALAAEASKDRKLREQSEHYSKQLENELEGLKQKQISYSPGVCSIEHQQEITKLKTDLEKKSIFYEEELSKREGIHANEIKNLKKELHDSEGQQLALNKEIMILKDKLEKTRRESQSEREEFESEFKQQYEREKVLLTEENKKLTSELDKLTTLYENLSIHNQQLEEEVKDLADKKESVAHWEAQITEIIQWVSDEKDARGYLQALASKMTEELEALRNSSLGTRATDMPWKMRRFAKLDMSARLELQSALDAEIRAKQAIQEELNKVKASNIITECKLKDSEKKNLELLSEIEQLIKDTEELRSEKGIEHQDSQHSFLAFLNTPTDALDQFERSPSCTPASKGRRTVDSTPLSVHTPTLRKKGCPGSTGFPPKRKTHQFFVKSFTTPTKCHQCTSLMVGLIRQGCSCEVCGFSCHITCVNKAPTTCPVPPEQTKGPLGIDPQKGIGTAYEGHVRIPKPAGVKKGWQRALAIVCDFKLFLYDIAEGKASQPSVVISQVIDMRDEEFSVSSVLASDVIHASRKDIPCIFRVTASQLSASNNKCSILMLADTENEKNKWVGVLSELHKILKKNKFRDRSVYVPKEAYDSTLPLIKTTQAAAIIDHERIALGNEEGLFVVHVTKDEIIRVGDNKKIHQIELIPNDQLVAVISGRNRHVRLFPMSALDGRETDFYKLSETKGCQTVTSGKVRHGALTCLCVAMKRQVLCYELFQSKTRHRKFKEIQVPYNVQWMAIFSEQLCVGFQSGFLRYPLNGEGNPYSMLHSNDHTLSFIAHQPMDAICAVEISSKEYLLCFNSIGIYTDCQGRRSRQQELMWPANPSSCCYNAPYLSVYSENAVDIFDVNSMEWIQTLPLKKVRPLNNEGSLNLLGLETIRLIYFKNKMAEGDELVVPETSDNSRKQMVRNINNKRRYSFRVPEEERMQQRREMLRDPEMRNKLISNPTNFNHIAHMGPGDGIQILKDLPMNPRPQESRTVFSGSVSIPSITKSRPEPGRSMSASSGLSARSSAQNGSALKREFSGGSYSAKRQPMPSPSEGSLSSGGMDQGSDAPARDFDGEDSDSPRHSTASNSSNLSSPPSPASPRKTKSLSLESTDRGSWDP
UniProt O75582, sequence (whole entry, looked up): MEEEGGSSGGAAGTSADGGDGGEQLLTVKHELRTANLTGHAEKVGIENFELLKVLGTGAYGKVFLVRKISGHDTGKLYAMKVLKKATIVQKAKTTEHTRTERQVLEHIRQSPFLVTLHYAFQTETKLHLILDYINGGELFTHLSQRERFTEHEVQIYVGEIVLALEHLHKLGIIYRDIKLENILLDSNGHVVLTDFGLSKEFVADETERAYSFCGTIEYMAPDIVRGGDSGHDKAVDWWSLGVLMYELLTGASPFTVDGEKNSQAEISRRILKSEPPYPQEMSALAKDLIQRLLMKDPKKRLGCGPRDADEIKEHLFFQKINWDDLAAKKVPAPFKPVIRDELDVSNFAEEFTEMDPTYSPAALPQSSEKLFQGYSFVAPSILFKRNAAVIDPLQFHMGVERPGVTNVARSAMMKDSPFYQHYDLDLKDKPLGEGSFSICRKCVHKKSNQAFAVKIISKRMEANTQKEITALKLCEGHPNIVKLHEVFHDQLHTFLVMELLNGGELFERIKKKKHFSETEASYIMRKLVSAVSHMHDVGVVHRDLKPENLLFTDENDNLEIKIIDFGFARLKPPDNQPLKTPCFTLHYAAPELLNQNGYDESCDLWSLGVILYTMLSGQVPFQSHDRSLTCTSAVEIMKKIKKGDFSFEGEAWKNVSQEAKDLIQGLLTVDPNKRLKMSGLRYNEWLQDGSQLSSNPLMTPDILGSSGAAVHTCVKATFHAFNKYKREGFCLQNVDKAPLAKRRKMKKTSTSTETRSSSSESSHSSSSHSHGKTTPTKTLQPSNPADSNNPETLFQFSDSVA
UniProt Q9Y6E0, sequence (whole entry, looked up): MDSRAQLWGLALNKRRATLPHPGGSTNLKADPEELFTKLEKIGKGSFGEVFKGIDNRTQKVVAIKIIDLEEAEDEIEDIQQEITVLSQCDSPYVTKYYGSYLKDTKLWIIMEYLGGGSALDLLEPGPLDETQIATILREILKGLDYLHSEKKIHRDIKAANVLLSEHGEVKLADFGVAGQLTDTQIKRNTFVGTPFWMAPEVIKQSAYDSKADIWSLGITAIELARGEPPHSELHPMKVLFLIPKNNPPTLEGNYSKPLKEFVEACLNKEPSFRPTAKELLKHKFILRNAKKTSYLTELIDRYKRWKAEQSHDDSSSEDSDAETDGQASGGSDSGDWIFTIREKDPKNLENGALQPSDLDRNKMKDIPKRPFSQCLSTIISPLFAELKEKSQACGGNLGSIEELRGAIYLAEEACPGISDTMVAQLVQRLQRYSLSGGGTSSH

Study 1 — tested at: 1 µM; endpoint: remaining binding
Structure (SMILES): CS(=O)(=O)c1cc(C2(NC(=O)c3cncc4c3cnn4-c3ccc(F)cc3)CC2)ccn1
FLT3 (Homo sapiens, UniProt P36888, D835V/ITD); cell-free assay, competition with immobilised ligand: 70%
RIOK1 (Homo sapiens, UniProt Q9BRS2); cell-free assay, competition with immobilised ligand: 80%
PAK6 (Homo sapiens, UniProt Q9NQU5); cell-free assay, competition with immobilised ligand: 96%
PIK3CA (Homo sapiens, UniProt P42336, E545A); cell-free assay, competition with immobilised ligand: 100%
BRAF (Homo sapiens, UniProt P15056); cell-free assay, competition with immobilised ligand: 87%
Macrophage colony-stimulating factor 1 receptor, autoinhibited (CSF1R, Homo sapiens, UniProt P07333); cell-free assay, competition with immobilised ligand: 100%
MAP3K7 (Homo sapiens, UniProt O43318); cell-free assay, competition with immobilised ligand: 94%
CDKL2 (Homo sapiens, UniProt Q92772); cell-free assay, competition with immobilised ligand: 100%
WNK4 (Homo sapiens, UniProt Q96J92); cell-free assay, competition with immobilised ligand: 97%
STK38 (Homo sapiens, UniProt Q15208); cell-free assay, competition with immobilised ligand: 100%
EGFR (Homo sapiens, UniProt P00533, del752-759); cell-free assay, competition with immobilised ligand: 98%
PIK3CD (Homo sapiens, UniProt O00329); cell-free assay, competition with immobilised ligand: 100%
KIT (Homo sapiens, UniProt P10721, D816V); cell-free assay, competition with immobilised ligand: 100%
MAPK3 (Homo sapiens, UniProt P27361); cell-free assay, competition with immobilised ligand: 100%
Ribosomal protein S6 kinase alpha-5, N-terminal kinase domain (RPS6KA5, Homo sapiens, UniProt O75582); cell-free assay, competition with immobilised ligand: 100%
MAP3K11 (Homo sapiens, UniProt Q16584); cell-free assay, competition with immobilised ligand: 100%
CILK1 (Homo sapiens, UniProt Q9UPZ9); cell-free assay, competition with immobilised ligand: 100%
Tyrosine-protein kinase ABL1, phosphorylated (ABL1, Homo sapiens, UniProt P00519, F317I); binding: 79%
STK24 (Homo sapiens, UniProt Q9Y6E0); cell-free assay, competition with immobilised ligand: 82%
LRRK2 (Homo sapiens, UniProt Q5S007); cell-free assay, competition with immobilised ligand: 43%

Study 2 — cell line: mouse MPNST tumor cells; technique: high-content nuclear imaging; refers to: cell number; tested at: 10 µM; time: 12 h; notes: mean of 2 replicates; reference: plate mean; reading: higher = more cells; endpoint: nuclei count
C[C@]12CCC(=O)C=C1CC[C@@H]1[C@@H]2[C@@H](O)C[C@@]2(C)[C@H]1CC[C@]2(O)C(=O)CO: 3.86 z-score
CN[C@@H](C)C(=O)N[C@H](C(=O)N1CCC[C@H]1C(=O)N[C@@H]1CCCc2ccccc21)C1CCCCC1: 1.84 z-score
Cn1c([N+](=O)[O-])cnc1COC(N)=O: 1.07 z-score
C[C@@](Cc1ccc(O)c(O)c1)(NN)C(=O)O: 0.814 z-score
Nc1ncnc2c1c(-c1ccc(Oc3ccccc3)cc1)nn2C1CCCC1: -0.116 z-score
Clc1cc(Cl)c(OCC#CI)cc1Cl: -4.93 z-score
Cc1cccc(-c2[nH]ncc2-c2ccc(F)c(-c3cnn(CCO)c3)c2)n1: -3.1 z-score
O=C(Nc1ccc(S(=O)(=O)Nc2nccs2)cc1)C(c1ccccc1)c1ccccc1: 2.21 z-score

Study 3 — read-out: enzyme activity; action: inhibitor; tested at: 0.5 µM; reference: control; endpoint: remaining activity
SMILES: C[S+]([O-])c1ccc(-c2nc(-c3ccncc3)c(-c3ccc(F)cc3)[nH]2)cc1 (stereo not shown)
ALK (Homo sapiens, UniProt Q9UM73): 105%
CDC42BPA (Homo sapiens, UniProt Q5VT25): 94.3%
TAOK3 (Homo sapiens, UniProt Q9H2K8): 103%
SRC (Homo sapiens, UniProt P12931): 92.6%
PRKX (Homo sapiens, UniProt P51817): 99.3%
PASK (Homo sapiens, UniProt Q96RG2): 99.1%
NEK11 (Homo sapiens, UniProt Q8NG66): 81.3%
ITK (Homo sapiens, UniProt Q08881): 97%
STK25 (Homo sapiens, UniProt O00506): 111%
MARK3 (Homo sapiens, UniProt P27448): 101%
Insulin receptor (INSR, Homo sapiens, UniProt P06213): 88.9%
AKT1 (Homo sapiens, UniProt P31749): 102%
NLK (Homo sapiens, UniProt Q9UBE8): 53.8%
FGR (Homo sapiens, UniProt P09769): 92.7%
FLT4 (Homo sapiens, UniProt P35916): 119%
MATK (Homo sapiens, UniProt P42679): 95.6%
LIM domain kinase 1 (LIMK1, Homo sapiens, UniProt P53667): 91.3%
HIPK1 (Homo sapiens, UniProt Q86Z02): 104%
Cyclin-dependent kinase 3, with cyclin E (CDK3, Homo sapiens, UniProt Q00526): 94.6%

Study 4 — tested at: 1 µM; endpoint: remaining binding
Structure (SMILES): CN1CCN(C(=O)c2ccc(NC(=O)Nc3ccc(N(C)c4ccnc(Nc5ccc(CS(C)(=O)=O)cc5)n4)cc3)cc2)CC1
RIPK2 (Homo sapiens, UniProt O43353); competitive binding panel; reference: vehicle: 94%
ERBB4 (Homo sapiens, UniProt Q15303); competitive binding panel; reference: vehicle: 77%
RPS6KA4 (Homo sapiens, UniProt O75676); competitive binding scan; N-terminal kinase domain 1: 82%
JAK3 (Homo sapiens, UniProt P52333); competitive binding panel; JH1 catalytic domain; reference: vehicle: 5.4%
EIF2AK4 (Homo sapiens, UniProt Q9P2K8, S808G); competitive binding panel; reference: vehicle: 100%
